# Measured values of several laboratories.
# Numbered parts are unrelated; each lists some results of a single study.
# Sequence of UniProt Q92630 (whole entry, looked up): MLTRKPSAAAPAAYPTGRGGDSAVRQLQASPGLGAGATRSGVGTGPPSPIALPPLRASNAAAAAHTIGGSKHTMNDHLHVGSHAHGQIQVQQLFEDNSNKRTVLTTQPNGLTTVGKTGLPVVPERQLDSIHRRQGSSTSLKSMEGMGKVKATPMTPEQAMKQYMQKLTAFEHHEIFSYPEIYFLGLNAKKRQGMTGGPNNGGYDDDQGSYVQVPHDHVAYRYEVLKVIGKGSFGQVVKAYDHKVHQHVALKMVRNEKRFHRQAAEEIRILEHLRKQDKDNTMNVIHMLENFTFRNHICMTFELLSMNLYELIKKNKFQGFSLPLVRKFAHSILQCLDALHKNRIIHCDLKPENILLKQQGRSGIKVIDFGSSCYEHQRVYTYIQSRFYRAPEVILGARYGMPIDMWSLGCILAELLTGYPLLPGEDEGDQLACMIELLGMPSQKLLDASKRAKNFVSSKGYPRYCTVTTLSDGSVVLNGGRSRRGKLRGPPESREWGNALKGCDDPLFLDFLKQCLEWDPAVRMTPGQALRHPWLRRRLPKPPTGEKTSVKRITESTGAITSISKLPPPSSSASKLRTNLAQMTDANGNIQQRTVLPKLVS
# Sequence of UniProt O96017 (whole entry, looked up): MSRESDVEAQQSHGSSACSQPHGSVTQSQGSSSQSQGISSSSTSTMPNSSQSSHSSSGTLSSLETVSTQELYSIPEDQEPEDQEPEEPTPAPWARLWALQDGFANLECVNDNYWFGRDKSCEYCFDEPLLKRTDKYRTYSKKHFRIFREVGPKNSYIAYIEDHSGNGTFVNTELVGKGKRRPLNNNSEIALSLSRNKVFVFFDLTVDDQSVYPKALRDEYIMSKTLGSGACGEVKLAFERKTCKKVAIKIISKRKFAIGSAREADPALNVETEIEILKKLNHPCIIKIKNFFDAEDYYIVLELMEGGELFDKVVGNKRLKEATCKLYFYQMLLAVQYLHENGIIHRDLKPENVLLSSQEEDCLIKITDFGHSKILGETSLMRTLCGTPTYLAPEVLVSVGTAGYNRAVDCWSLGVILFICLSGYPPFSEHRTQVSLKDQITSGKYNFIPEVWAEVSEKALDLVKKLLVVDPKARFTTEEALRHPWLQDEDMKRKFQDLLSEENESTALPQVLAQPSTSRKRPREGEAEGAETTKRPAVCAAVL
# Sequence of UniProt P36897 (whole entry, looked up): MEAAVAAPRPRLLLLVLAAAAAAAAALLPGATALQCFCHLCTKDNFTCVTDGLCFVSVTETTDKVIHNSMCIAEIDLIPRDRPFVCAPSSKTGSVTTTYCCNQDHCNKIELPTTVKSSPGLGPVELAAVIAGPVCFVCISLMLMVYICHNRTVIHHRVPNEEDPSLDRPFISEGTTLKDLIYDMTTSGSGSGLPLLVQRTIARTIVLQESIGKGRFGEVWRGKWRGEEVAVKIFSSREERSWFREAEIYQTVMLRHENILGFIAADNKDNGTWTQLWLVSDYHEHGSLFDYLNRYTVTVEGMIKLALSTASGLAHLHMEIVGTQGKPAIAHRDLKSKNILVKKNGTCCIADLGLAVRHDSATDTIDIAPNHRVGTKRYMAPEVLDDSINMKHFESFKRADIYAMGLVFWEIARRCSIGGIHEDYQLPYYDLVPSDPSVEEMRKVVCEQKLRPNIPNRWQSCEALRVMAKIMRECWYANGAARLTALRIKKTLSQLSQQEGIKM
# Sequence of UniProt Q9BQI3 (whole entry, looked up): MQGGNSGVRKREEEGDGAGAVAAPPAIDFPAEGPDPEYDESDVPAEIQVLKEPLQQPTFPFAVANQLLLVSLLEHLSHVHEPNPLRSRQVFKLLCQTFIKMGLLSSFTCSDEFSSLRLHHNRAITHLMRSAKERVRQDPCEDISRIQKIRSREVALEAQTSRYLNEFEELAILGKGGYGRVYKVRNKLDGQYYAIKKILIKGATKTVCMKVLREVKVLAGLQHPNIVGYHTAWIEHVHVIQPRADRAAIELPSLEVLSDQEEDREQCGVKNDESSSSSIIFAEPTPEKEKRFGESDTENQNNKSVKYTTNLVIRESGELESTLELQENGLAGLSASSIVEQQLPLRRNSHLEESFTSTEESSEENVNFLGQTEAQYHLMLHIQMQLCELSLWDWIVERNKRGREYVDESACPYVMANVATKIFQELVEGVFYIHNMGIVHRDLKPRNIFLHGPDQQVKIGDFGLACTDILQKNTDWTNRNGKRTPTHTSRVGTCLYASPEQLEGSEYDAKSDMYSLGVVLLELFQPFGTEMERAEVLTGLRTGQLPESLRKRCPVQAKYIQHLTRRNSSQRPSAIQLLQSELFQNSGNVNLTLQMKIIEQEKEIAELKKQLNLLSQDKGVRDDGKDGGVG
# Sequence of UniProt Q9UEE5 (whole entry, looked up): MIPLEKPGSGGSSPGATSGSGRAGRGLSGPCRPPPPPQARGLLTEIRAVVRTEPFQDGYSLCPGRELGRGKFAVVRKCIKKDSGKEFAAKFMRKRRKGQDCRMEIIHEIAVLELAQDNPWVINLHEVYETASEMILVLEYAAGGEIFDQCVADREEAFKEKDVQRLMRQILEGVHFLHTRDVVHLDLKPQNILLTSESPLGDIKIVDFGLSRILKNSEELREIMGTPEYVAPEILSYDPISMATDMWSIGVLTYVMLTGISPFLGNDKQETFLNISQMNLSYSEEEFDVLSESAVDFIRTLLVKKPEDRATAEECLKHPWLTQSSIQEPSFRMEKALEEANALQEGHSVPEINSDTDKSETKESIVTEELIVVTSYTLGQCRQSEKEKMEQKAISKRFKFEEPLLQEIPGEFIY
# Sequence of UniProt P10721 (whole entry, looked up): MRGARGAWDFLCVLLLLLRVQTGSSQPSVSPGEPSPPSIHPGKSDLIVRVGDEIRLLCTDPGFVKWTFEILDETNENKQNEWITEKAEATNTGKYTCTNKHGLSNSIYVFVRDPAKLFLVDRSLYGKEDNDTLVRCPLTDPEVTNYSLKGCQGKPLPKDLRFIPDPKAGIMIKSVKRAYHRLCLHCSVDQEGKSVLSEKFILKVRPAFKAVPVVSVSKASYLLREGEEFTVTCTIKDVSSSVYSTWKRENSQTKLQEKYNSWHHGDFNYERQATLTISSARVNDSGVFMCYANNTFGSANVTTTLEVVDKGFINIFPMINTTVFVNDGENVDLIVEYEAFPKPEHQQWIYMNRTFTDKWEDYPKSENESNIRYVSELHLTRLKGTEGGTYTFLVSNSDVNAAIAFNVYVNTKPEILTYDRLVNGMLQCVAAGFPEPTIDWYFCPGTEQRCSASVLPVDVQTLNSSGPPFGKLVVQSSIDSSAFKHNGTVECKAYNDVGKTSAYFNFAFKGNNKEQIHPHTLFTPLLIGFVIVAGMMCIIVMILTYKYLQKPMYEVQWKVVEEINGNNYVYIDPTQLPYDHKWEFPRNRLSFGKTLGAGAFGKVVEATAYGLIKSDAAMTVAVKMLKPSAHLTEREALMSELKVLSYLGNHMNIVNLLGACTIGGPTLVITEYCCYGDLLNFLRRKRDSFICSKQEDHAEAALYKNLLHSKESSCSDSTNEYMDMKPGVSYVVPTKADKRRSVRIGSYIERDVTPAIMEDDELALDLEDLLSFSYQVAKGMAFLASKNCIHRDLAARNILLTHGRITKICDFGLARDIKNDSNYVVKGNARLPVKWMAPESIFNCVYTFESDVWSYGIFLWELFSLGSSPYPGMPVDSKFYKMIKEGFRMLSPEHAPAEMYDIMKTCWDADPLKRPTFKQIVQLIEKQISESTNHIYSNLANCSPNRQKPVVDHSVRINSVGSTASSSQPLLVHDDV

# Set 1
# SMILES: CCc1ccccc1C(=O)Nc1n[nH]c2c(C)c(F)c(C3C(C#N)=C(C)N(C)C(C)=C3C#N)cc12
# Effect on: cell-free assay
# Method: competition with immobilised ligand
# Concentration: 1 µM
target,remaining binding [%]
"Serine/threonine-protein kinase Chk2 (CHEK2, Homo sapiens, UniProt O96017)",70
"Eukaryotic translation initiation factor 2-alpha kinase 1 (EIF2AK1, Homo sapiens, UniProt Q9BQI3)",100
"TGF-beta receptor type-1 (TGFBR1, Homo sapiens, UniProt P36897)",58
"Serine/threonine-protein kinase 17A (STK17A, Homo sapiens, UniProt Q9UEE5)",89
"Mast/stem cell growth factor receptor Kit, autoinhibited (KIT, Homo sapiens, UniProt P10721)",100
"Dual specificity tyrosine-phosphorylation-regulated kinase 2 (DYRK2, Homo sapiens, UniProt Q92630)",82
"Tyrosine-protein kinase ABL1, phosphorylated (ABL1, Homo sapiens, UniProt P00519, H396P)",97

# Set 2
# Target: Calcium/calmodulin-dependent protein kinase type II subunit delta (CAMK2D, Homo sapiens, UniProt Q13557)
# Sequence of UniProt Q13557 (whole entry, looked up): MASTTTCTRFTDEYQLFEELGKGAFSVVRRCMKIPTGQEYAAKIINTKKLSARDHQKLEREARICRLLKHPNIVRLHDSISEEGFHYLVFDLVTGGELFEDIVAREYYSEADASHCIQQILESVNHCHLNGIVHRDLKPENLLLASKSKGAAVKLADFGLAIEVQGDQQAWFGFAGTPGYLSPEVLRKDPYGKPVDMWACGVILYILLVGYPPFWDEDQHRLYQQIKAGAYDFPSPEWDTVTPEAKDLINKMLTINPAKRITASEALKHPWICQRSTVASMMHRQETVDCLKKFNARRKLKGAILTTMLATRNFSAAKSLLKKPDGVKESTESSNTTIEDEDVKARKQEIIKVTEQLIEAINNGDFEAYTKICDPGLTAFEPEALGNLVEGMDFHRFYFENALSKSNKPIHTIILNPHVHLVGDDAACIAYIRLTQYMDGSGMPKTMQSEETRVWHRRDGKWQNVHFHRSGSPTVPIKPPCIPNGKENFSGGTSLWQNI
# Effect on: enzyme activity
# Action: inhibitor
# Concentration: 0.5 µM
# Reference: control
Compound,remaining activity
CCOC(=O)c1c(C)[nH]c(/C=C2\C(=O)Nc3ccccc32)c1C,93.9%
COc1cc2nccc(Oc3ccc(NC(=S)NC(=O)c4ccccc4C)cc3)c2cc1OC,102%
Nc1ccc2ncnc(NCCc3ccc(Oc4ccccc4)cc3)c2c1,98.9%
Cn1c2ccccc2c2c3c(c4c5ccccc5n(CCC#N)c4c21)CNC3=O,20.3%
COc1cc2ncnc(Nc3ccc(Oc4ccccc4)cc3)c2cc1OC,97.2%
COc1cc2ncnc(Nc3ccc(F)c(Cl)c3)c2cc1OCCCN1CCOCC1,92.4%
Cn1sc(=O)n(Cc2ccccc2)c1=O,98.9%
NCCNc1ncc(C(N)=O)c(Nc2cccc(C(F)(F)F)c2)n1,92.5%
Nc1ncnc2n[nH]c(Nc3ccc(F)cc3)c12,92.5%
CC(C)[C@H](CO)Nc1nc(Nc2cc(N)cc(Cl)c2)c2ncn(C(C)C)c2n1,87.3%
Cc1cccc(-c2[nH]c(C(C)(C)C)nc2-c2ccc3c(c2)OCO3)n1,100%
O=C(CCCc1ccc(-c2ccccc2F)cc1)Nc1ccc(O)cc1,108%
O=C1NC(=O)C(c2cn(CCCO)c3ncccc23)=C1c1cnccn1,101%
O=C(O)c1ccc2c3c1cccc3c(=O)n1c3ccccc3nc21,93.6%
O=c1c2ccccc2[nH]c(=S)n1CCN1CCC(=C(c2ccc(F)cc2)c2ccc(F)cc2)CC1,97.9%

# Set 3
# Effect on: AlphaScreen signal
# Method: AlphaScreen counter screen
# Sample: His6 peptide without bromodomain
# Concentration: 50 µM
# Notes: assay interference check
Structure (SMILES),inhibition [%]
Cc1ccc(C(=O)Nc2ccc(CN3CCN(C)CC3)c(C(F)(F)F)c2)cc1C#Cc1cnc2cccnn12,53
COc1ccc(-c2nnc3ccc(SCc4cccnc4)nn23)cc1OC,6.25
Nc1ccccc1NC(=O)CSc1nc2ccccc2s1,17.1
CCOc1ccc(-c2csc3nc[nH]c(=O)c23)cc1,5
COC(=O)CCNc1ccc(O)c2c1C(=O)c1ccccc1C2=O,85.8
NC(=O)c1ccc(-c2nc(-c3ccc4c(c3)OCCO4)c(-c3ccccn3)[nH]2)cc1,43.4
COc1ccc(C)c(Nc2cc(OCCN3CCOCC3)nc(-n3cnc4ccccc43)n2)c1,54.3
Cc1c(Cn2c(C)nc3c(C(=O)O)cc(N4CCOCC4)cc32)cccc1C(F)(F)F,46.4

# Set 4
# SMILES: CC(C)n1cnc(-c2ccc(F)cc2)c1-c1ncc(C(=O)Nc2ccc(N3CCN(C)CC3)cc2)[nH]1
# Method: Phase 2a trial
# Host: idiopathic pulmonary fibrosis patients
measured,route,dose,notes,patients with adverse events
oral herpes,oral,dose not given,"grade 2 maximum intensity, all arms",0%
oral herpes,oral,dose not given,"grade 4 maximum intensity, all arms",0%
neutrophil count increased,,dose not given,"grade 2 maximum intensity, all arms",0%
back pain,,60 mg once daily,grade 4 maximum intensity,0%
weight increased,,60 mg once daily,grade 4 maximum intensity,0%
weight increased,,30 mg once daily,grade 1 maximum intensity,0%
oral herpes,oral,30 mg once daily,grade 5 maximum intensity,0%
bile acids increased,,60 mg once daily,grade 5 maximum intensity,0%
blood alkaline phosphatase increased,,dose not given,"grade 1 maximum intensity, all arms",0%

# Repeated from above (set 2):
Compound,remaining activity
Nc1ccc2ncnc(NCCc3ccc(Oc4ccccc4)cc3)c2c1,98.9%
CC(C)[C@H](CO)Nc1nc(Nc2cc(N)cc(Cl)c2)c2ncn(C(C)C)c2n1,87.3%
CCOC(=O)c1c(C)[nH]c(/C=C2\C(=O)Nc3ccccc32)c1C,93.9%
Cn1sc(=O)n(Cc2ccccc2)c1=O,98.9%
O=C(O)c1ccc2c3c1cccc3c(=O)n1c3ccccc3nc21,93.6%
COc1cc2ncnc(Nc3ccc(Oc4ccccc4)cc3)c2cc1OC,97.2%
